Published values gathered from unrelated publications.
Parts stem from different laboratories: compare values within a part only. “And” joins repeats or separate records; there may be more than shown.
Chain of UniProt P10721 (whole entry, looked up): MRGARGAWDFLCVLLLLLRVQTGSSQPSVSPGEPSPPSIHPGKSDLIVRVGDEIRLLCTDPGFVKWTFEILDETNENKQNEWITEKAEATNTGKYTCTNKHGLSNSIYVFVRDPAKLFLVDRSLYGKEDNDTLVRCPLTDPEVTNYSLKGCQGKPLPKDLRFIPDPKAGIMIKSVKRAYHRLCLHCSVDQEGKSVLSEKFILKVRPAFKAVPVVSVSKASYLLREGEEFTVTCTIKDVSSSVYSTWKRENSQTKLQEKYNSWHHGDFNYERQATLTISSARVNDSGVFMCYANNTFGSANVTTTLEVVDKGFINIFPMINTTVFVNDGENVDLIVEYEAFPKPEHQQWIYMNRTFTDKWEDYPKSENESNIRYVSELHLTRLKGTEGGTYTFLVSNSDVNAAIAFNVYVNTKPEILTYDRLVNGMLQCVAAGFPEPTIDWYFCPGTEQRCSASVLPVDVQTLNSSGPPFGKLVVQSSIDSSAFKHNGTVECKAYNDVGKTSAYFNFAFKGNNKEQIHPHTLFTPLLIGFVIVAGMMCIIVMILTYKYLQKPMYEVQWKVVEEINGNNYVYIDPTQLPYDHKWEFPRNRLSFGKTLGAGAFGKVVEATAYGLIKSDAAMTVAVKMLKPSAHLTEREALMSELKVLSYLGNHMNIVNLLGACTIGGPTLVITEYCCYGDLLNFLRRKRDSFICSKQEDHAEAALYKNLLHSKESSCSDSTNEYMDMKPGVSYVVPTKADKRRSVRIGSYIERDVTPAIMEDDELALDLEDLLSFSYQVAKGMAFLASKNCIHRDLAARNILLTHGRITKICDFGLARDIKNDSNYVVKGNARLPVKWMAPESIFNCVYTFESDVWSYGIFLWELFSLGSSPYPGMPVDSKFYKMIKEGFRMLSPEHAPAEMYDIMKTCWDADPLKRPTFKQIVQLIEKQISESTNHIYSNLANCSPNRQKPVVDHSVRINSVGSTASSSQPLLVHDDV
Chain of UniProt Q07002 (whole entry, looked up): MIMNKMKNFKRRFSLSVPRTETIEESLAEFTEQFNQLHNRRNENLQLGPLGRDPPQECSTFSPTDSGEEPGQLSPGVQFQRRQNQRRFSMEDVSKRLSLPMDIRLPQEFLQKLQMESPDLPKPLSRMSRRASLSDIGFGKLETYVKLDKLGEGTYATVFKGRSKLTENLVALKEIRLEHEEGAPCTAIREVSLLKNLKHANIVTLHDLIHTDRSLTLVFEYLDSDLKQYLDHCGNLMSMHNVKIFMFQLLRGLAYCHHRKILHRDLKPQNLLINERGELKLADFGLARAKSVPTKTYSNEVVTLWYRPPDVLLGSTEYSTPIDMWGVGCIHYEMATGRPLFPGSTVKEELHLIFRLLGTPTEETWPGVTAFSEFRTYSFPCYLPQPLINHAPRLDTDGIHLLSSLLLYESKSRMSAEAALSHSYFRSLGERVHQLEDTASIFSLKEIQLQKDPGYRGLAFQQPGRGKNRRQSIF
Chain of UniProt Q06187 (whole entry, looked up): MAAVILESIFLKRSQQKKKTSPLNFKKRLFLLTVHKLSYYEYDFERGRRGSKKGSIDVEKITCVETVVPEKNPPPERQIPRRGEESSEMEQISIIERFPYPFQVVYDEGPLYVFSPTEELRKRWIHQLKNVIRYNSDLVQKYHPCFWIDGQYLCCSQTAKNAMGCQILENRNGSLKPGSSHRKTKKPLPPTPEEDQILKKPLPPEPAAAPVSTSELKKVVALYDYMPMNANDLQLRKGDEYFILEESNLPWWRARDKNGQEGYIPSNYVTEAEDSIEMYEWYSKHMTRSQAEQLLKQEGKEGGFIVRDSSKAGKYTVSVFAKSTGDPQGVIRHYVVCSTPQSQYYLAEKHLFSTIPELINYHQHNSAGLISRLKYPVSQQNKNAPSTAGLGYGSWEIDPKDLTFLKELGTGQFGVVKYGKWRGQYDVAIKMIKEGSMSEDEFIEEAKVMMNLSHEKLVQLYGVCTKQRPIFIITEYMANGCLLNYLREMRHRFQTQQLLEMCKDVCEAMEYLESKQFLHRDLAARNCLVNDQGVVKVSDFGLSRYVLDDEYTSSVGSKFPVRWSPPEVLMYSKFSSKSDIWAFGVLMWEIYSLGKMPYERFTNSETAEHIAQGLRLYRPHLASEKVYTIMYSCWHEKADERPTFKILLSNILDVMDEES
Chain of UniProt P51957 (whole entry, looked up): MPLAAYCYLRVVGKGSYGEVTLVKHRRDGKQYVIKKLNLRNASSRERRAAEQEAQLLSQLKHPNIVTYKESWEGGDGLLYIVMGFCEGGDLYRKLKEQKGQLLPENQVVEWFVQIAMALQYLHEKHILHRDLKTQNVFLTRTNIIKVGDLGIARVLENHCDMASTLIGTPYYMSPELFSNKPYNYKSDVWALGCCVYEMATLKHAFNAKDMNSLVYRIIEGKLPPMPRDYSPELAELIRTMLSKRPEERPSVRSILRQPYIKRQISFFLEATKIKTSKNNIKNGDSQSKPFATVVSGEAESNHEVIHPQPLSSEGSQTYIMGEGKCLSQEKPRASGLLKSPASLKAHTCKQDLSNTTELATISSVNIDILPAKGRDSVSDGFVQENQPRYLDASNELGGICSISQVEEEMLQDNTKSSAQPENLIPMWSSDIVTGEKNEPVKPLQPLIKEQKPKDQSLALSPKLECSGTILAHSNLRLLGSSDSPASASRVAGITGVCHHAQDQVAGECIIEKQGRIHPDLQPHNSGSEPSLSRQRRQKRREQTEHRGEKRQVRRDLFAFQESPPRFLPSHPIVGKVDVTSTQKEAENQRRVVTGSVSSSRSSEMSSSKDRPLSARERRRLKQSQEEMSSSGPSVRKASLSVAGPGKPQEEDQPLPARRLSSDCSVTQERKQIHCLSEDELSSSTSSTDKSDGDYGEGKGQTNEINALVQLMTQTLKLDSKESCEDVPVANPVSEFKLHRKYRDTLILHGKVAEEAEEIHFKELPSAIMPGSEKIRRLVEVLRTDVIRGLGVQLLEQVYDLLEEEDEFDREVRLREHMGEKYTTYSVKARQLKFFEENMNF
Chain of UniProt Q9UM73 (whole entry, unmodified, looked up): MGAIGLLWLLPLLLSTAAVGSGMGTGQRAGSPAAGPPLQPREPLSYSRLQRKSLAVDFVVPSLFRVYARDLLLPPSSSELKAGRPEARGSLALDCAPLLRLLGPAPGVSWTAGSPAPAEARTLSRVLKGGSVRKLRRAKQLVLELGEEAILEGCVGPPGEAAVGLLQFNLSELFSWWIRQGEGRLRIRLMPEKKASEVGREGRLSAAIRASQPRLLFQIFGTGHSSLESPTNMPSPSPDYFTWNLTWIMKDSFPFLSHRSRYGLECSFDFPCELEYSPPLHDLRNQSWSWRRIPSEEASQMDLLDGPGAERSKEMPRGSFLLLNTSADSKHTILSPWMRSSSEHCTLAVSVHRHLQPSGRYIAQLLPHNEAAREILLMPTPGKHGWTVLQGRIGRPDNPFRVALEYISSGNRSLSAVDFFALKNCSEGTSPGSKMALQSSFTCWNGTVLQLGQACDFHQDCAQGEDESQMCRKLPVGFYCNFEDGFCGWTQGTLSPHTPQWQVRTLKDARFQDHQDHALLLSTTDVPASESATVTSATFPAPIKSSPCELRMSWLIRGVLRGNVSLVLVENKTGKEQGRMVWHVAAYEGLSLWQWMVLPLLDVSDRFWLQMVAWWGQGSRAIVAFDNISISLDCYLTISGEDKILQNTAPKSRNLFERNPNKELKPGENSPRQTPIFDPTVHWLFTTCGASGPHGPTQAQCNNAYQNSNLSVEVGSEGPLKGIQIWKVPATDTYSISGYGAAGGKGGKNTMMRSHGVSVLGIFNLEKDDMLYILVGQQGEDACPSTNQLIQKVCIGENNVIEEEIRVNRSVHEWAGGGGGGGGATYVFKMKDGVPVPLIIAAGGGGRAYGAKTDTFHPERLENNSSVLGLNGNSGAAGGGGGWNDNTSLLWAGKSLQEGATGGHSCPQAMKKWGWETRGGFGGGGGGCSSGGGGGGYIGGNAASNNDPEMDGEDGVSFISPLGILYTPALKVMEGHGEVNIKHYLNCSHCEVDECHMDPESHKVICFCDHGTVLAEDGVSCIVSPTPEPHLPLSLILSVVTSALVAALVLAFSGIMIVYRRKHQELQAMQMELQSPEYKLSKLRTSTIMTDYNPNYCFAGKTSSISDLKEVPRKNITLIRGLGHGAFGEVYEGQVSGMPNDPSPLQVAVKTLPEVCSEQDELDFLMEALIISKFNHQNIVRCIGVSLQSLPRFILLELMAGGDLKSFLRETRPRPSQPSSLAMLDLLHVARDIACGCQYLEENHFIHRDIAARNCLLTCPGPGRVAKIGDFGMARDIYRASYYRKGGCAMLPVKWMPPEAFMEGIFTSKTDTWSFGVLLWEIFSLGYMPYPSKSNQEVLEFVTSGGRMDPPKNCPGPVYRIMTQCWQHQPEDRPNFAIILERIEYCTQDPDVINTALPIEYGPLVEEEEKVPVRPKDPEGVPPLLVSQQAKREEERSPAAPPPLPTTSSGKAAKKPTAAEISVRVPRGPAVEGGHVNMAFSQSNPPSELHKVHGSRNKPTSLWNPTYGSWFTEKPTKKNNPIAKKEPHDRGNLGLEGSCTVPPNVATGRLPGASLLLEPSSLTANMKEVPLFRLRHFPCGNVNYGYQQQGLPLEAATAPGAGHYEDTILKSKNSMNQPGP
Chain of UniProt Q9NY57 (whole entry, looked up): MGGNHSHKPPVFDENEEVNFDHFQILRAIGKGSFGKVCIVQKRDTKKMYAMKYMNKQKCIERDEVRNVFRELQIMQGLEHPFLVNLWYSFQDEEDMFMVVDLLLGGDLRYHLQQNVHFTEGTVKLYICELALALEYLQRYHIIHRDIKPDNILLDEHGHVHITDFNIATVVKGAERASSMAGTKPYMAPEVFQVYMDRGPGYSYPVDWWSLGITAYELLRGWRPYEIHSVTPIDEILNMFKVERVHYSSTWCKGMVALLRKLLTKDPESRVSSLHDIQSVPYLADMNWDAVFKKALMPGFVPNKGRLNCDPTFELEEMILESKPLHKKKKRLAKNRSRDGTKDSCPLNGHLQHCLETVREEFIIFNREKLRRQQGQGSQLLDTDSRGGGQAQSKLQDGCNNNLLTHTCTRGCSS

Block 1
SMILES: N#CC1(c2ccccn2)CCN(Cc2cc(C(=O)N3CCCC3)c(=O)n3ccccc23)CC1
Concentration: 1 µM
Endpoint: remaining binding
target = Tyrosine-protein kinase Fgr (FGR, Homo sapiens, UniProt P09769); test = cell-free assay, competition with immobilised ligand; result = 100%
target = Mast/stem cell growth factor receptor Kit, autoinhibited (KIT, Homo sapiens, UniProt P10721); test = cell-free assay, competition with immobilised ligand; result = 100%
target = Serine/threonine-protein kinase DCLK1 (DCLK1, Homo sapiens, UniProt O15075); test = cell-free assay, competition with immobilised ligand; result = 91%
target = Mitogen-activated protein kinase 8 (MAPK8, Homo sapiens, UniProt P45983); test = cell-free assay, competition with immobilised ligand; result = 96%
target = ALK tyrosine kinase receptor (ALK, Homo sapiens, UniProt Q9UM73, L1196M); test = cell-free assay, competition with immobilised ligand; result = 100%
target = Protein kinase C theta type (PRKCQ, Homo sapiens, UniProt Q04759); test = cell-free assay, competition with immobilised ligand; result = 100%
target = Serine/threonine-protein kinase 32B (STK32B, Homo sapiens, UniProt Q9NY57); test = cell-free assay, competition with immobilised ligand; result = 100%
target = Tyrosine-protein kinase ZAP-70 (ZAP70, Homo sapiens, UniProt P43403); test = cell-free assay, competition with immobilised ligand; result = 100%
target = Rhodopsin kinase GRK1 (GRK1, Homo sapiens, UniProt Q15835); test = cell-free assay, competition with immobilised ligand; result = 85%
target = Phosphatidylinositol 4,5-bisphosphate 3-kinase catalytic subunit alpha isoform (PIK3CA, Homo sapiens, UniProt P42336, I800L); test = cell-free assay, competition with immobilised ligand; result = 72%
target = NUAK family SNF1-like kinase 1 (NUAK1, Homo sapiens, UniProt O60285); test = cell-free assay, competition with immobilised ligand; result = 86%
target = Cyclin-dependent kinase 18 (CDK18, Homo sapiens, UniProt Q07002); test = cell-free assay, competition with immobilised ligand; result = 100%
target = Serine/threonine-protein kinase MRCK gamma (CDC42BPG, Homo sapiens, UniProt Q6DT37); test = competition binding; result = 88%
target = Cyclin-dependent kinase-like 2 (CDKL2, Homo sapiens, UniProt Q92772); test = cell-free assay, competition with immobilised ligand; result = 93%

Block 2
Structure (SMILES): CC(=O)N[C@@H](Cc1c[nH]c2ccccc12)C(=O)N[C@@H](CCC(=O)C=[N+]=[N-])C(=O)OC(C)C
Species: C57BL/6 CES1-/- mice, EL4 tumour
Route: subcutaneous
Dose: 0.3 mg/kg/day DON equivalent
Time: 5 days
Endpoint: metabolite peak intensity
test = UPLC-MS/MS, refers to: N-acetylglucosamine 1-phosphate; system = EL4 tumour; result = 660000 a.u. and 808000 a.u. and 705000 a.u. and 821000 a.u. and 425000 a.u. and 1.12e+06 a.u.
test = UPLC-MS/MS, refers to: N-acetyl-1-methylhistidine; system = EL4 tumour; result = 109000 a.u. and 93600 a.u. and 141000 a.u. and 52500 a.u.
test = LC-MS/MS metabolomics, refers to: ornithine; system = EL4 tumour; how to read = higher = more metabolite; result = 4.88e+08 a.u. and 6.91e+08 a.u. and 7.7e+08 a.u. and 8.61e+08 a.u. and 8.63e+08 a.u. and 6.85e+08 a.u.
test = LC-MS/MS metabolomics, refers to: mannonate; system = EL4 tumour; how to read = higher = more metabolite; result = 5e+06 a.u. and 3.48e+06 a.u. and 4.92e+06 a.u. and 4.79e+06 a.u. and 4.09e+06 a.u. and 5.08e+06 a.u.
test = UPLC-MS/MS, refers to: isoleucine; system = EL4, tumour; conditions = normalised to tissue mass; how to read = higher = more metabolite; result = 1.65e+09 a.u. and 1.83e+09 a.u. and 1.52e+09 a.u. and 1.47e+09 a.u. and 1.68e+09 a.u. and 1.48e+09 a.u.
test = UPLC-MS/MS metabolomics, refers to: N-alpha-acetylornithine; system = EL4 tumour; conditions = normalised to tissue mass; how to read = higher = more metabolite; result = 345000 a.u. and 343000 a.u. and 226000 a.u. and 315000 a.u. and 224000 a.u.

Block 3
Cell line: mouse MPNST tumor cells
Method: high-content nuclear imaging
Refers to: cell number
Concentration: 10 µM
Time: 12 h
Setting: mean of 2 replicates
Baseline: plate mean
Reading: higher = more cells
Endpoint: nuclei count
Structure (SMILES) = Cc1ccc(N2CCN(CCC3NC(=O)c4ccccc43)CC2)cc1C (stereo not drawn); result = 2.52 z-score
Structure (SMILES) = CCCCOc1nc(N)c2[nH]c(=O)n(Cc3cccc(CC(=O)OC)c3)c2n1; result = -0.0203 z-score
Structure (SMILES) = CCCC(=O)Nc1ncnc2c1ncn2[C@@H]1O[C@@H]2COP(=O)(O)O[C@H]2[C@H]1OC(=O)CCC; result = -0.347 z-score and -0.102 z-score
Structure (SMILES) = C[C@@H](CN1CCC(Cc2ccccc2)CC1)[C@@H](O)c1ccc(O)cc1; result = 2.83 z-score
Structure (SMILES) = CCN(CCCCOC(=O)c1ccc(OC)c(OC)c1)C(C)Cc1ccc(OC)cc1 (stereo not drawn); result = 3.47 z-score
Structure (SMILES) = COC(=O)c1csc(C(=O)c2c[nH]c3ccccc23)n1; result = 0.345 z-score
Structure (SMILES) = CC(=O)c1cc([N+](=O)[O-])c(Sc2ccc(F)cc2F)s1; result = -0.475 z-score
Structure (SMILES) = O=C(Cn1ccnc1[N+](=O)[O-])NCCO; result = 1.59 z-score
Structure (SMILES) = O=C(c1ccc(F)cc1)C1CCN(CCn2c(=S)[nH]c3ccccc3c2=O)CC1; result = 1.56 z-score

Block 4
Structure (SMILES): COc1cc2ncc(-c3ccccc3)nc2cc1OC
Effect on: enzyme activity
Action: inhibitor
Concentration: 0.5 µM
Baseline: control
Endpoint: remaining activity
target = Mitogen-activated protein kinase 12 (MAPK12, Homo sapiens, UniProt P53778); result = 95.5%
target = Serine/threonine-protein kinase Chk1 (CHEK1, Homo sapiens, UniProt O14757); result = 94.7%
target = Serine/threonine-protein kinase Nek4 (NEK4, Homo sapiens, UniProt P51957); result = 101%
target = MAP kinase-interacting serine/threonine-protein kinase 2 (MKNK2, Homo sapiens, UniProt Q9HBH9); result = 86.3%
target = Cyclin-dependent kinase 9, with cyclin T1 (CDK9, Homo sapiens, UniProt P50750); result = 83.2%
target = Tyrosine-protein kinase BTK (BTK, Homo sapiens, UniProt Q06187); result = 98%
target = Mast/stem cell growth factor receptor Kit (KIT, Homo sapiens, UniProt P10721); result = 67.3%
target = Casein kinase I isoform alpha (CSNK1A1, Homo sapiens, UniProt P48729); result = 100%
target = Mitogen-activated protein kinase 13 (MAPK13, Homo sapiens, UniProt O15264); result = 89.6%
target = Mitogen-activated protein kinase kinase kinase kinase 2 (MAP4K2, Homo sapiens, UniProt Q12851); result = 99.2%

For quick reference, copied from above (block 4):
target = Mitogen-activated protein kinase 13 (MAPK13, Homo sapiens, UniProt O15264); result = 89.6%
target = Mitogen-activated protein kinase kinase kinase kinase 2 (MAP4K2, Homo sapiens, UniProt Q12851); result = 99.2%
target = Mitogen-activated protein kinase 12 (MAPK12, Homo sapiens, UniProt P53778); result = 95.5%
target = MAP kinase-interacting serine/threonine-protein kinase 2 (MKNK2, Homo sapiens, UniProt Q9HBH9); result = 86.3%
target = Mast/stem cell growth factor receptor Kit (KIT, Homo sapiens, UniProt P10721); result = 67.3%
